Measured values pooled from the literature.
Parts stem from different laboratories: compare values within a part only. “And” joins repeats or separate records; there may be more than shown.
UniProt O94804, sequence (whole entry, looked up): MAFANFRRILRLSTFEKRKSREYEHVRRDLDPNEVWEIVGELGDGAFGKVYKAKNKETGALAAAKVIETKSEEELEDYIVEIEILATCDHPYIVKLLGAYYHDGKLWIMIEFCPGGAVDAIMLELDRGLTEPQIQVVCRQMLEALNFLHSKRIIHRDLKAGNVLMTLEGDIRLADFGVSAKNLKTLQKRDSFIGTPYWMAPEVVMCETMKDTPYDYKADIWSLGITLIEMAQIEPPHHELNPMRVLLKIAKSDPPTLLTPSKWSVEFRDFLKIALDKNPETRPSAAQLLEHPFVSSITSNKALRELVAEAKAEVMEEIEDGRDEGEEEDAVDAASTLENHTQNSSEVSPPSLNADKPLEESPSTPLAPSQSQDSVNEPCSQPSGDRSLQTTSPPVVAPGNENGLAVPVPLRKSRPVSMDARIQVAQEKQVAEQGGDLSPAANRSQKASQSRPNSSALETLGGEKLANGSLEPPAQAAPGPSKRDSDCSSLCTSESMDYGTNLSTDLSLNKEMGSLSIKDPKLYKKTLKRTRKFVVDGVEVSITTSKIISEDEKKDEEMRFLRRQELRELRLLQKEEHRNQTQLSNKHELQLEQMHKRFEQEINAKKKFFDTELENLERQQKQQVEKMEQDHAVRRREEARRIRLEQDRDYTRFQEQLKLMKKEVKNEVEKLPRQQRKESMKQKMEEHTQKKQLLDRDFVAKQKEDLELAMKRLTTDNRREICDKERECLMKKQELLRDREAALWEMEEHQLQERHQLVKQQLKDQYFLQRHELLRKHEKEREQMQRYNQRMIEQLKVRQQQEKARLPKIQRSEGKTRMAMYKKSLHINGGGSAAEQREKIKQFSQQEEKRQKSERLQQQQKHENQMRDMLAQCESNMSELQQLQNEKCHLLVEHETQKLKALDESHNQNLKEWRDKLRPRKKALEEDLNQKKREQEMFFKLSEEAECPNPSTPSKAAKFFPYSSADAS
UniProt Q13546, sequence (whole entry, looked up): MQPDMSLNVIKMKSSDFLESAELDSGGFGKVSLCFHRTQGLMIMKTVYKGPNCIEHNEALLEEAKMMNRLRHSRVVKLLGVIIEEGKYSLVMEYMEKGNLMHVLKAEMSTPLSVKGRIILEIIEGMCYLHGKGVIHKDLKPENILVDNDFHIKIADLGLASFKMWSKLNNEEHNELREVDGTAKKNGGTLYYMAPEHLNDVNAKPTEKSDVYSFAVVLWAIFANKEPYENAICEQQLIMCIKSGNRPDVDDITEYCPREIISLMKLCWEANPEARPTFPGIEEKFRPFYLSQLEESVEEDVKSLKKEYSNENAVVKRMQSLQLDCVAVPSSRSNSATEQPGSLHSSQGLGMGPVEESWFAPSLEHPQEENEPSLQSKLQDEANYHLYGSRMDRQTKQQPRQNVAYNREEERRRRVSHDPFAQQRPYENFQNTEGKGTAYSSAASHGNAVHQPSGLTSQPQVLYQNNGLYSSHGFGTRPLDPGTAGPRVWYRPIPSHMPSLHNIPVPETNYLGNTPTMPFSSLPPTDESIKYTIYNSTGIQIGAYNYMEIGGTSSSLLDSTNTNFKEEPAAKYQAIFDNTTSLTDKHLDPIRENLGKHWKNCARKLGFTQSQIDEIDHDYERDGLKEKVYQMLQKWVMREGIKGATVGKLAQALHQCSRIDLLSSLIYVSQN

Study 1 — read-out: enzyme activity
SMILES: NC/C(=C\F)COc1ccc(Cn2c(=S)[nH]c(=O)c3[nH]cnc32)cc1
AOC3: Amine oxidase [copper-containing] 3 (AOC3, Homo sapiens, UniProt Q16853)
UniProt Q16853, sequence (whole entry, looked up): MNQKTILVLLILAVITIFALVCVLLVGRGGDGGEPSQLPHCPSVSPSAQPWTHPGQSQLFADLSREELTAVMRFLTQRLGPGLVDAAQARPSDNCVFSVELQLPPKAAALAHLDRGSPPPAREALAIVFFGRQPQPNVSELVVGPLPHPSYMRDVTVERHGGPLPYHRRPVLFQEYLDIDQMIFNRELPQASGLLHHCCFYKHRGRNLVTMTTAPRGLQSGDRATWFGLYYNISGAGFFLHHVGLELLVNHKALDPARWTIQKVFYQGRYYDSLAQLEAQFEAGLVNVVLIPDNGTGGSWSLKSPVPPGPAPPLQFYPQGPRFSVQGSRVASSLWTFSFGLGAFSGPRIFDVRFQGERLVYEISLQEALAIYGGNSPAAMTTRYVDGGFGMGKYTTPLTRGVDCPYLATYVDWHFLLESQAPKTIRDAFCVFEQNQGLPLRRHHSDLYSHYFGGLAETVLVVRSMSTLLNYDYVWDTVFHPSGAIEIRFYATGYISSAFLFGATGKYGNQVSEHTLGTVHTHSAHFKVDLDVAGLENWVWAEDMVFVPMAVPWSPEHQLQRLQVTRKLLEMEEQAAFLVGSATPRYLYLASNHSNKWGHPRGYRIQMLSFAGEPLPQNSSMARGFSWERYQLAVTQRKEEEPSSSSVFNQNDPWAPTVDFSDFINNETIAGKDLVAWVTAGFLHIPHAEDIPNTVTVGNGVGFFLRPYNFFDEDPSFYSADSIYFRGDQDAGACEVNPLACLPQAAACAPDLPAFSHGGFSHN
MPO: Myeloperoxidase (MPO, Homo sapiens, UniProt P05164)
UniProt P05164, sequence (whole entry, looked up): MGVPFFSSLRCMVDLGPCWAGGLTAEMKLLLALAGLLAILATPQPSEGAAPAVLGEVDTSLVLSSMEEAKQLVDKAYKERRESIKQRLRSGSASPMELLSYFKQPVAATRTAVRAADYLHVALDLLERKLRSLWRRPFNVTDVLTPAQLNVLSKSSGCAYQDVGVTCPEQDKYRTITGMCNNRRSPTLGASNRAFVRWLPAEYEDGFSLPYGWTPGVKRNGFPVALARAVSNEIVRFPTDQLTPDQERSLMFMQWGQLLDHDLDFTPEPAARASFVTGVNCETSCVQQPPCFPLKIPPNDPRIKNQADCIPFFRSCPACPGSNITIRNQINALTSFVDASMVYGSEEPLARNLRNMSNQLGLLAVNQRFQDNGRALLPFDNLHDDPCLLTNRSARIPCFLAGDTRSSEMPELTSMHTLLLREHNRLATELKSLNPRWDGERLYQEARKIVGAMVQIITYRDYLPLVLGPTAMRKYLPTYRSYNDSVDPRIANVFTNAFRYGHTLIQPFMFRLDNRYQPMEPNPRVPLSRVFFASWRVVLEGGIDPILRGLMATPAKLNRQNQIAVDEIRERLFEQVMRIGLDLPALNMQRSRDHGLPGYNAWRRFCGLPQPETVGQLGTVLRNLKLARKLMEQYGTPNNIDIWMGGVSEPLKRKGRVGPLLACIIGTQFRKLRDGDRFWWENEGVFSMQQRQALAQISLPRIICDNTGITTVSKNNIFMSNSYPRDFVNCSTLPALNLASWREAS
target | action | method | tested at | inhibition
AOC3 | inhibitor | fluorescence | 41.2 nM | 99.3%
MPO |  |  | 100 µM | 62.4% and 58.9%
MPO |  |  | 0.1372 µM | -6.73% and -7.5%
MPO |  |  | 0.4115 µM | -3.44% and 6%
AOC3 | inhibitor | fluorescence | 1.4 nM | 37.6%

Study 2 — tested at: 1 µM
SMILES: CC[C@@]1(c2cccc(-c3c(F)cncc3OC)c2)C2=C(Nc3n[nH]cc31)[C@H](F)C(C)(C)CC2=O (single isomer, unassigned)
target | read-out | method | relative to | remaining binding [%]
Serine/threonine-protein kinase WNK2 (WNK2, Homo sapiens, UniProt Q9Y3S1) | kinase binding | KINOMEscan | DMSO control | 73
Serine/threonine-protein kinase LATS1 (LATS1, Homo sapiens, UniProt O95835) | kinase binding | KINOMEscan | DMSO control | 100
Serine/threonine-protein kinase 10 (STK10, Homo sapiens, UniProt O94804) | binding | competition with immobilised ligand |  | 77
Receptor-interacting serine/threonine-protein kinase 1 (RIPK1, Homo sapiens, UniProt Q13546) | binding | competition with immobilised ligand |  | 100
Protein kinase C epsilon type (PRKCE, Homo sapiens, UniProt Q02156) | binding | competition with immobilised ligand |  | 69
Serine/threonine-protein kinase DCLK3 (DCLK3, Homo sapiens, UniProt Q9C098) | binding | competition with immobilised ligand |  | 76
Protein kinase C delta type (PRKCD, Homo sapiens, UniProt Q05655) | binding | competition with immobilised ligand |  | 100
Serine/threonine-protein kinase PRP4 homolog (PRPF4B, Homo sapiens, UniProt Q13523) | binding | competition with immobilised ligand |  | 100
Phosphatidylinositol 4,5-bisphosphate 3-kinase catalytic subunit alpha isoform (PIK3CA, Homo sapiens, UniProt P42336, H1047Y) | binding | competition with immobilised ligand |  | 100
Epidermal growth factor receptor (EGFR, Homo sapiens, UniProt P00533, A750P/del747-749) | kinase binding | KINOMEscan | DMSO control | 100
Ribosomal protein S6 kinase beta-1 (RPS6KB1, Homo sapiens, UniProt P23443) | binding | competition with immobilised ligand |  | 83
Transient receptor potential cation channel subfamily M member 6 (TRPM6, Homo sapiens, UniProt Q9BX84) | binding | competition with immobilised ligand |  | 77

Study 3 — cell line: AsPC-1; method: in-cell ELISA
SMILES: Cc1ncsc1-c1ccc(C2(NC(=O)C3CC(O)CN3C(=O)C(NC(=O)c3ccc(COc4c(-c5c(C)c(F)cc6[nH]ncc56)c(C5CC5)cc5c(N6CC7CC6CN7)nc(OC6CCOCC6)nc45)cc3)C(C)(C)C)CC2)cc1 (centres unmarked)
tested at | notes | phospho-ERK1/2 level
10 nM | per-experiment values | 93.2% and 103% and 101%
1 µM | individual replicates | 21.6% and 54.2% and 37.2% and 52.6% and 23.4% and 22.2%
30 nM | individual replicates | 99% and 105% and 93.2% and 94.1% and 104% and 93.4%
1 nM | per-experiment values | 88.1% and 103% and 97.4%
100 nM | individual replicates | 84.1% and 90.2% and 87% and 85.9% and 99.9%

Study 4 — read-out: thermal unfolding; method: differential scanning fluorimetry; tested at: 5.5 µM; reading: higher = more unfolded
SMILES: C[C@@H]1CN(c2ccc(-c3cc(C(=O)NCCOCCOCCOCCOCCNC(=O)Cn4cc(-c5[nH]cc(C(=O)N[C@@H](CC(N)=O)c6ccc(F)c(Cl)c6)c5-c5ccc(Cl)cc5F)cn4)ccc3F)cc2NC(=O)c2c[nH]c(=O)cc2C(F)(F)F)C[C@H](C)N1C
DCAF1: DDB1- and CUL4-associated factor 1 (DCAF1, Homo sapiens, UniProt Q9Y4B6)
UniProt Q9Y4B6, sequence (whole entry, looked up): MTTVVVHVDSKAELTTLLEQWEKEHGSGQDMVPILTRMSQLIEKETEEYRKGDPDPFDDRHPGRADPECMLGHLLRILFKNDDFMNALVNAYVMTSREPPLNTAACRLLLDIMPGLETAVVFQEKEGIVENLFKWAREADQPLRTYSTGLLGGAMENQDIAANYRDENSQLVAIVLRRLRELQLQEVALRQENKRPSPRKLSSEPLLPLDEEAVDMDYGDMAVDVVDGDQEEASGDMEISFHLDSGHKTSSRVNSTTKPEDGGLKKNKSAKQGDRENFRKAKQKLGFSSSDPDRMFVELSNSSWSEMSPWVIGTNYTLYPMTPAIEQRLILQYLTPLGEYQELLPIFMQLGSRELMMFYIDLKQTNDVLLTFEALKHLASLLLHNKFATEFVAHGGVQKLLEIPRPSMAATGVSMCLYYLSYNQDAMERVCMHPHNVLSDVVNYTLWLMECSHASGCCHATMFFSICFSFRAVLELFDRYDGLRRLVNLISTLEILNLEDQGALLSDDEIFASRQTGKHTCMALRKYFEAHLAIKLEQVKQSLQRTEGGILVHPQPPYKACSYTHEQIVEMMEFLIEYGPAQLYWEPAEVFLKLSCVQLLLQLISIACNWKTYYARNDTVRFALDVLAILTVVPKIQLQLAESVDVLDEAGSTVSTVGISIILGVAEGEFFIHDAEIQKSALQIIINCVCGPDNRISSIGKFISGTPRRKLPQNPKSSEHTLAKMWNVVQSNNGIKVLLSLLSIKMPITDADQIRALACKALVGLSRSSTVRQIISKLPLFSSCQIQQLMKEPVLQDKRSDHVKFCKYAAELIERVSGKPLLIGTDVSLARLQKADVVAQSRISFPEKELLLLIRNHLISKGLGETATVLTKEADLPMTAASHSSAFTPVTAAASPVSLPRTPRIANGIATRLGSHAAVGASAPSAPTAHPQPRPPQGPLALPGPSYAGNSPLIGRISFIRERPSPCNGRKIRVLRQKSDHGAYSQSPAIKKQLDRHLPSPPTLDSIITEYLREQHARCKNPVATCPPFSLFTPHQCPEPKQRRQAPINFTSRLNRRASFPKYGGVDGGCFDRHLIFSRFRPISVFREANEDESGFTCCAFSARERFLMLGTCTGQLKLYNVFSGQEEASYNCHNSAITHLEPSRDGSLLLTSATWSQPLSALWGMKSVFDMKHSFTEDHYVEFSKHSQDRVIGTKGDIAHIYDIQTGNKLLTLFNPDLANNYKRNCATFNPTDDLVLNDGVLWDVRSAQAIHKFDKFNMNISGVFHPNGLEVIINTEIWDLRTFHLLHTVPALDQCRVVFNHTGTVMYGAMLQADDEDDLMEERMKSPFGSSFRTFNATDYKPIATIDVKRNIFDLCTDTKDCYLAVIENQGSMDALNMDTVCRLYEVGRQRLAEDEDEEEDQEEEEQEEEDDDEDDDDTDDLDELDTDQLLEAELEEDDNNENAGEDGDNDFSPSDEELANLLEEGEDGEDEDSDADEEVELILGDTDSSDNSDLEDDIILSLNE
WDR5: WD repeat-containing protein 5 (WDR5, Homo sapiens, UniProt P61964)
target | temperature | SYPRO Orange fluorescence [a.u.]
DCAF1 | 75.01 °C | 49200
DCAF1 | 64.41 °C | 55000
DCAF1 | 30.2 °C | 8310
DCAF1 | 87.81 °C | 37200
DCAF1 | 65.61 °C | 56400
WDR5 | 94.01 °C | 39100
WDR5 | 31.4 °C | 14800

Excerpt of the above (study 4):
target | temperature | SYPRO Orange fluorescence [a.u.]
WDR5 | 31.4 °C | 14800
DCAF1 | 75.01 °C | 49200
DCAF1 | 65.61 °C | 56400
WDR5 | 94.01 °C | 39100
